Assay results of several laboratories.
Each line is one published result; not all experiments were run side by side. ± gives the spread as reported.

Substance	cell line	test	test system	setting	scale	endpoint	result
N=C(N)NN	RAW264.7				baseline: cytotoxicity IC50 over antiglycation IC50	selectivity ratio	> 1000 fold
COCCN1C(N)=NC(N)=NC12CCN(S(=O)(=O)c1ccccc1)CC2	MDCK	microscopy, altered cell morphology				minimum cytotoxic concentration	> 100 µM
Clc1ccc(-c2cc(Cl)c(Cl)c(Cl)c2)cc1Cl	primary mouse hepatocytes	inducer, item: Cyp1a1 mRNA	C57BL/6	24 h		EC50	0.0123 ± 0.0079 µM
CO[C@]1(CO)O[C@@H](n2ccc(=O)[nH]c2=O)C(F)(F)[C@@H]1O	HEL embryonic lung fibroblasts	cell morphology, microscopy				minimum cytotoxic concentration	> 100 µM
C=C(C[C@H](N)C(=O)O)C(=O)NCc1ccccc1	MDA-MB-231			24 h	baseline: vehicle	concentration increasing cytotoxicity	320 µM
C[C@H](Cn1cnc2c(N)ncnc21)OCP(=O)(O)O	hCMEC/D3			10 µM, 1 h, 37 °C		intracellular accumulation	5.32 ± 1.07 pmol/mg protein
O=Cc1cc(Cn2cc(F)c(=O)[nH]c2=O)ccc1O	HEL fibroblasts	cell morphology, microscopy				minimum cytotoxic concentration	100 µM
O=P(Oc1ccccc1)(Oc1ccccc1)Oc1ccccc1	human iPSC-derived cardiomyocytes	mitochondrial membrane potential, item: JC-10 granules		30 min		point of departure	< 30 µM
O=c1c(O)c(-c2ccc(O)c(O)c2)oc2c1ccc1ccccc12	rat H4IIE	MTT		20 or 50 µM, 24 h, added: cyclosporin A	baseline: control	viability	65.6%
CCOP(=S)(OCC)Oc1nc(Cl)c(Cl)cc1Cl	human iPSC-derived cardiomyocytes	mitochondrial membrane potential, item: JC-10 granules		30 min		point of departure	< 30 µM
CCN(N=O)C(C)C	HepaRG 3D spheroids	DNA damage, item: % tail DNA		24 h	baseline: vehicle	lowest effective concentration	2500 µM
O=C(CNS(=O)(=O)NCc1cccc(Oc2ccccc2)c1)NCCN1CCOCC1	HG23 norovirus replicon cells			48 h		TD50	165 ± 15 µM
O=C(O)C(F)(F)C(F)(F)C(F)(F)C(F)(F)C(F)(F)C(F)(F)F	MDCK			2 µM, 90 min, pH 7.4, receiver 0.4% BSA		Papp A to B	1.4 ×10⁻⁶ cm/s
Cc1nn(Cc2ccc(O)c(C=O)c2)c(=O)[nH]c1=O	HEL fibroblasts	cell morphology alteration				minimum cytotoxic concentration	≥ 20 µM
O=c1cc(-c2ccc(O)c(O)c2)oc2c([C@@H]3O[C@H](CO)[C@@H](O)[C@H](O)[C@H]3O)c(O)cc(O)c12	A549	cell viability, MTS		3 days, 90% cells viable		maximum non-toxic concentration	180.3 ± 0.92 µM
C[C@@H]1CCO[C@H]2Cn3cc(C(=O)NCc4ccc(F)cc4F)c(=O)c(O)c3C(=O)N12	hCMEC/D3			5 µM, 1 h, in antiretroviral combination		intracellular concentration	14.7 ± 1.41 ng/mL
CCN(CC)N=O	HepaRG, 2D culture	flow cytometry micronucleus		highest tested concentration, 24 h, plus 3 days hEGF	baseline: vehicle	relative survival	80.7%
O=c1[nH]c(=O)n([C@H]2C[C@H](O)[C@@H](CO)O2)cc1/C=C/Br	HEL embryonic lung fibroblasts	cell morphology, microscopy				minimum cytotoxic concentration	> 300 µM
CC1(C)[C@H](C(=O)O[C@H](C#N)c2cccc(Oc3ccccc3)c2)[C@@H]1C=C(Br)Br	Caco-2	Hoechst and PI staining		25 µM, 48 h	baseline: untreated	apoptotic cells ratio	4.3
CCCCC(CC)COC(=O)c1ccccc1C(=O)O (stereo not shown)	TK6			196 µM, 48 h, added: reduced glutathione 500 µM		mitochondrial membrane permeability	decreased
CCCCN(CCCC)N=O	HepaRG, 2D culture	flow cytometry micronucleus		highest tested concentration, 24 h, plus 3 days hEGF	baseline: vehicle	relative survival	66.6%
C=C(C[C@H](N)C(=O)O)C(=O)Nc1ccc(Cl)cc1	MDA-MB-231			24 h	baseline: vehicle	concentration increasing cytotoxicity	32 µM
CCCN1C(N)=NC(N)=NC12CCN(C(=O)C1CC1)CC2	MDCK	microscopy, altered cell morphology				minimum cytotoxic concentration	> 100 µM

Substance	cell line	test	test system	setting	scale	endpoint	result
N#CCCNCCC#N	human iPSC-derived cardiomyocytes	cytotoxicity, calcein AM		24 h		point of departure	30 µM
CN(N=O)c1ccccc1	HepaRG 3D spheroids	DNA damage, item: % tail DNA		24 h	baseline: vehicle	lowest effective concentration	188 µM
CC[C@H](C)[C@H](NC(=O)[C@H](C)NC(=O)[C@H](CCCNC(=N)N)NC(=O)[C@H](CCCNC(=N)N)NC(=O)[C@H](CC(N)=O)NC(=O)[C@H](CCCNC(=N)N)NC(=O)[C@H](CCCNC(=N)N)NC(=O)[C@H](C)NC(=O)[C@@H](NC(=O)[C@H](CO)NC(=O)[C@@H](NC(=O)[C@@H](NC(=O)[C@H](CS)NC(=O)[C@H](CCCCN)NC(=O)[C@@H](N)CCCNC(=N)N)C(C)C)[C@@H](C)CC)C(C)C)C(=O)N[C@@H](CCCCN)C(=O)N[C@H](C(=O)N[C@@H](CC(C)C)C(=O)N[C@@H](CS)C(=O)N[C@@H](CC(N)=O)C(=O)O)[C@@H](C)CC	human red blood cells			128 µg/mL, 3 h, 37 °C	baseline: Triton X-100	hemolysis	-0.03%
C=C(C[C@H](N)C(=O)O)C(=O)NCc1ccc(F)cc1	MDA-MB-231			24 h	baseline: vehicle	concentration increasing cytotoxicity	320 µM
Cl.Cl.O=C(Nc1ccc(O[C@H]2CCNC2)c(-c2ccc(F)cc2)c1)c1ccc(O[C@H]2CCNC2)c(-c2ccc(F)c(F)c2)c1	MDA-MB-231	trypsin-EDTA digestion vs solvent extraction		concentration not given, 6 h		nonspecific binding	18%
COc1ccc2cc3[n+](cc2c1OC)CCc1cc2c(cc1-3)OCO2	human iPSC-derived cardiomyocytes	mitochondrial membrane potential, item: JC-10 granules		30 min		point of departure	< 30 µM
O=C(CCCc1ccc2c(c1)CCCC2)NC(=O)N[C@@H]1O[C@H](CO)[C@@H](O)[C@H](O)[C@H]1O	HEL fibroblasts	cell morphology		3 days		minimal cytotoxic concentration	> 100 µM
CN(CCCC(=O)O)N=O	HepaRG, 2D culture	flow cytometry micronucleus		highest tested concentration, 24 h, plus 3 days hEGF	baseline: vehicle	relative survival	63.5%
C=C(C)[C@]12C[C@@H](COC(=O)c3ccccc3)[C@]34OC5(CCCCCCC[C@H](C)[C@@H]6[C@@H]3[C@]3(O[C@]6(C)OC3=O)[C@H](O)[C@@]3(CO)O[C@H]3[C@H]4[C@H]1O5)O2	MT4	cell growth or viability, ATP luminescence				IC50	3.4 µM
COc1cccc2c1C(=O)c1c(O)c3c(c(O)c1C2=O)C[C@@](O)(C(=O)CO)C[C@@H]3O[C@H]1C[C@H](N)[C@H](O)[C@H](C)O1	HCT-8/ADR	flow cytometry, item: positive cells		10 µg/mL, 4 h, 10% FBS		cellular uptake	~20%
Cl.O=C(CNS(=O)(=O)NCc1cccc(Oc2ccccc2)c1)N1CCN(Cc2ccccc2)CC1	HG23 norovirus replicon cells			48 h		TD50	120 ± 14 µM
O=NN1CCN(C2CCCC2)CC1	HepaRG 3D spheroids	DNA damage, item: % tail DNA		24 h	baseline: vehicle	lowest effective concentration	312 µM
CC[C@H](C)[C@@H]1NC(=O)[C@@H]2CSSC[C@H](NC(=O)[C@H](C(C)C)NC(=O)[C@H]([C@@H](C)CC)NC(=O)[C@H](C(C)C)NC(=O)[C@@H](NC(=O)[C@H](CCCCN)NC(=O)[C@@H](N)CCCNC(=N)N)CSSC[C@@H](C(=O)N[C@@H](CCCNC(=N)N)C(=O)O)NC(=O)[C@H](CC(C)C)NC(=O)[C@H]([C@@H](C)CC)NC1=O)C(=O)N[C@@H](CCCNC(=N)N)C(=O)N[C@@H](CCCNC(=N)N)C(=O)N[C@@H](CC(N)=O)C(=O)N[C@@H](CCCNC(=N)N)C(=O)N[C@@H](CCCNC(=N)N)C(=O)N2	human red blood cells			128 µg/mL, 3 h, 37 °C	baseline: Triton X-100	hemolysis	0.87%
N=C(N)NCCC[C@H](NC(=O)CCC(=O)OC[N+]1(c2cc(=O)c3cccc(-c4ccccc4)c3o2)CCOCC1)C(=O)NCC(=O)N[C@@H](CC(=O)O)C(=O)N[C@@H](CO)C(=O)[O-]	RPMI-8226 cells	cell viability		48 h		IC50	11.9 µM
CON=C(N)c1ccc(-c2ccc(-c3ccc(C(N)=NOC)cc3)o2)cc1	HEK293T transfected with CYP1B1	cytotoxicity, resazurin		72 h, without α-naphthoflavone		IC50	57.6 ± 1.6 µM
Cc1cccn2c(=O)c3cc(C(=O)Nc4ccc(N(C)C)cc4)n(C)c3nc12	Vero E6	MTT				IC50	87.3 ± 6.65 µM
CC(C)(C)C(O)(CCc1ccc(Cl)cc1)Cn1cncn1 (stereo not shown)	human iPSC-derived cardiomyocytes	mitochondrial membrane potential, item: JC-10 granules		30 min		point of departure	< 30 µM
C-type natriuretic peptide	HEK293 expressing human GC-B	cGMP elevation	human kidney membranes	37 °C		half-life	4.3 min
COc1c(O)cc2oc3cc(O)c(CC=C(C)C)c(O)c3c(=O)c2c1CC=C(C)C	MDM	RP-HPLC		concentration not given, added: LPS 100 ng/mL	baseline: unstimulated cells	xanthone metabolite amounts	no effect
O=C(Nc1ccccc1F)c1cc2c(=O)n3ccccc3nc2n1Cc1ccccc1	Vero E6	MTT				IC50	48.8 ± 3.72 µM
CCS(=O)(=O)N1CCC2(CC1)N=C(N)N=C(N)N2CCOC	MDCK	microscopy, altered cell morphology				minimum cytotoxic concentration	> 100 µM
CC[C@H](C)[C@H](NC(=O)[C@H](C)NC(=O)[C@H](CCCNC(=N)N)NC(=O)[C@H](CCCNC(=N)N)NC(=O)[C@H](CC(N)=O)NC(=O)[C@H](CCCNC(=N)N)NC(=O)[C@H](CCCNC(=N)N)NC(=O)[C@H](C)NC(=O)[C@@H](NC(=O)[C@@H](NC(=O)[C@@H](NC(=O)[C@H](CS)NC(=O)[C@H](CCCCN)NC(=O)[C@@H](N)CCCNC(=N)N)C(C)C)[C@@H](C)CC)C(C)C)C(=O)N[C@H](C(=O)N[C@@H](CC(C)C)C(=O)N[C@@H](CS)C(=O)N[C@@H](CCCNC(=N)N)C(=O)O)[C@@H](C)CC	human red blood cells			128 µg/mL, 3 h, 37 °C	baseline: Triton X-100	hemolysis	-0.4%
O=Cc1cc(Cn2ccc(=O)[nH]c2=O)ccc1O	HEL fibroblasts	cell morphology, microscopy				minimum cytotoxic concentration	≥ 100 µM

A few entries again:
Substance	cell line	test	test system	setting	scale	endpoint	result
CCN(CC)N=O	HepaRG, 2D culture	flow cytometry micronucleus		highest tested concentration, 24 h, plus 3 days hEGF	baseline: vehicle	relative survival	80.7%
CN(N=O)c1ccccc1	HepaRG 3D spheroids	DNA damage, item: % tail DNA		24 h	baseline: vehicle	lowest effective concentration	188 µM
CCOP(=S)(OCC)Oc1nc(Cl)c(Cl)cc1Cl	human iPSC-derived cardiomyocytes	mitochondrial membrane potential, item: JC-10 granules		30 min		point of departure	< 30 µM
COc1cccc2c1C(=O)c1c(O)c3c(c(O)c1C2=O)C[C@@](O)(C(=O)CO)C[C@@H]3O[C@H]1C[C@H](N)[C@H](O)[C@H](C)O1	HCT-8/ADR	flow cytometry, item: positive cells		10 µg/mL, 4 h, 10% FBS		cellular uptake	~20%
O=NN1CCN(C2CCCC2)CC1	HepaRG 3D spheroids	DNA damage, item: % tail DNA		24 h	baseline: vehicle	lowest effective concentration	312 µM
